Experimental data gathered from unrelated publications.
Numbered parts are unrelated; each lists some results of a single study. Positions count from the first letter of the parent shown.

Sample 1 — method: RNA Bind-n-Seq; molecule type: RNA; matrix: in vitro; tested at: 365 nM; relative to: no-protein control; reading: higher = stronger binding
Target: RNA binding protein fox-1 homolog 2, RRM domain, GST-SBP tag (RBFOX2, Homo sapiens, UniProt O43251-10, residues 100-194)
Setting: natural RNA segment, single round, ends assumed
Construct (chain): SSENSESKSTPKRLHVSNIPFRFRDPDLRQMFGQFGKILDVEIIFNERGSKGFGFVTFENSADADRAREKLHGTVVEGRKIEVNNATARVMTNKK
Strand | RBNS enrichment (R)
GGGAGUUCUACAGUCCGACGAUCGUCAGUUAAGUGACGGAUUCUGUUGUGGUUUGAAUGCAGUACCAGUGUUCUCUUCGAGCAAAGUAGACCUGGGUCACUGUAGGCAUAGGACUUGGAUUGCUUCAGAUGGUUGGAAUUCUCGGGUGCCAA | 0.441
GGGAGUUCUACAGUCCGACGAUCGACCUUGUACAGUCUGCUUGCUGGCUCUGAAAGCUGGGGUUGGGGGACAGAGUCUCAAGCCCUUAAUUUAUUUUAGCAGCUGUGUUUCUGUGACCCUGGUGUGACUAAGCUGGAAUUCUCGGGUGCCAA | 0.562
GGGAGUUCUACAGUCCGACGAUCUGGCAGGAUGUCUGGGGCCUCACCAGCAGGAGCGCGUGCAAGCCGGGCAGGCGGUCCACCUAGACCCACAGCCCCUCGGGAGCACCCCACCUCUGUGUGUGAUGUAGCUUUGGAAUUCUCGGGUGCCAA | 0.41
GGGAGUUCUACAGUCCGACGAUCGAUGGAACACUUCCAGUGAUGGUAAGAGAUCUGUUAUGAAACGAAACACCCCCCGUGUUAAUAACUUGGUCUGAAAUCUGUUUUUAUGAGCCGGGCCCCCUGUGCCUCUAUGGAAUUCUCGGGUGCCAA | 0.334
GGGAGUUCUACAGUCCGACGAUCACCUCAAGCUUUACUGACUUCAAUUAUCUGUUUUUAAAGACGUAGAAGAUUUAUUUAAUUUGAUAUGUUCUUGUACUGCAUUUUGAUCAGUUGAGCUUUUAAAAUAUUAUUGGAAUUCUCGGGUGCCAA | 0.438
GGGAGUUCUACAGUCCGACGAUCUGUGUUUUCGUCACAGGAGUCUUUGUAAUGCUUGUACAGUUGAUGUCGAUGCUCACUGCUUCUGCUUUUUCUUUCUUUUUAUUUUAAAUCUGAAGGUUCUGGUAACCUGUUGGAAUUCUCGGGUGCCAA | 0.482
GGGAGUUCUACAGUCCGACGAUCAGAACCUUAGUGAAAGGUUCUCAGUCUCUGAGAGUGGACCCUAAUUAACAUAAAGACCAUUCAUCAGCGAAUAACUACUGAGCAACUCUAGUGUGCCAGCACAGGCCAGAUGGAAUUCUCGGGUGCCAA | 0.326
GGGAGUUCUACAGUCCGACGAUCAUUGUGUUCACUACAACAGGAUAGGGACAUCAGACAGCCCCAGAAACCCCUUCCAGAUCUGAUAUGGGACUAUUAAUUUUUAUGCUGUUAAUUGGUAUUCAUUCACAAUGUGGAAUUCUCGGGUGCCAA | 0.314
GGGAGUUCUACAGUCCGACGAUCUCUACUAAUUAUGGGCUAAAGAGUUUCUUAUAAUAAAAUAUCCUCUAAGAUUAUAAAAUAAGCAGGUACUUUAUUUACUAUGUUGUACUCUGCAGUGUUGAUUUUUUAAAUGGAAUUCUCGGGUGCCAA | 0.787
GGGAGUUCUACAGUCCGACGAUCUUACCAUUACAUAGUAAUUUUGAUUCUGAAUUUCACAUUAAAUUAUUUGAGUUUAUACAGACCUAAAUUUUAAAAUCUGUACAUAUAUUAUUUUGAUGUAUUAAGAUGAAUGGAAUUCUCGGGUGCCAA | 0.413
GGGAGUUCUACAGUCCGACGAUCGCAGUGACGUCCUCCCACGCCUGGCGGCCGUAGUGGCUGUGCUCCGGGCAGCAUCGGGCUUCAUAGGUUCGUUGCUCUCCUGAGCUUUUUUGAUUCACUUGCUUUGUUUUUGGAAUUCUCGGGUGCCAA | 0.721
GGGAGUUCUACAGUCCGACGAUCCAUUUAAACUUUUUAAAAUACUUAUUAAAAAAUUUGUAUAAGCCACUUGUCUUGAAAACUGUGCAACUUUUUAAAGUAAAUUAUUAAGCAGACUGGAAAAGUGAUGUAUUUGGAAUUCUCGGGUGCCAA | 3.53

Sample 2 — method: protein binding microarray; molecule type: double-stranded DNA, one strand shown; matrix: in vitro; tested at: not given; relative to: not given; reading: higher = stronger binding
Target: Histone acetyltransferase KAT6A, winged helix 1, GST fusion (KAT6A, Homo sapiens, UniProt Q92794, residues 1-85)
Setting: 8-mer, flanks averaged, mean of 2 arrays, mostly near background
Residues (chain): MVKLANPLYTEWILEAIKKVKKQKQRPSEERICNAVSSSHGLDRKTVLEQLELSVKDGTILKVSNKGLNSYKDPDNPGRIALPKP
Strand | E-score
GCTGAAGA | -0.109
GCTCTTGA | -0.0374
TAAATTGA | -0.2
AAGCGTGG | 0.127
CACTGATC | -0.279
CTGTCCGA | 0.0923
ACCAAAGA | -0.219
TAACGCTA | 0.00951
CCACGCGC | 0.392
CAACGCTC | -0.0919
GGTATGAC | 0.164
TACACCCA | -0.198
GTCTTTAA | -0.1
ACTAACTG | -0.0911
AAGCAGAT | -0.248
GAACGCAC | 0.0815

Sample 3 — method: protein-binding microarray; molecule type: double-stranded DNA, one strand shown; matrix: in vitro; tested at: 940 nM top; setting: 60-bp whole probe; added: salmon DNA 0.4 mg/ml; relative to: random background probes; reading: higher = stronger binding; shared flanks, not repeated: GCCTAGCAC … GTCTTGATTCGCTTGACGCTGCTG
Target: Interferon regulatory factor 5, full length, phosphomimetic (IRF5, Homo sapiens, UniProt Q13568-2, residues 1-514, S451D/S453D/S456D/S462D)
Strand | fitted relative affinity [z-score]
TCATTTTTGGAATGTCTTACTGTGCTA | 0.194
GTCGATATCGGGACTGGAGACGTGCTA | 0.0297
TTAGGTATCGGTCTCGCTTAGTGCTAG | 9.93
GACGCTCTCAGTTTCGAGACGTGCTAG | 4.57
GTGAATATATGTATATATGTGTGCTAG | -0.238
GACGATATCAGCTTCGAGACGTGCTAG | 0.0303
TTAGGTTTCCTTTCGCTTTAGTGCTAG | 3.14
AGACCATCCTGTATGGATGTGTGCTAG | -0.644
GACGTTTTCCTTTCCCTGACGTGCTAG | 1.61
TTAGATTTCGGGTTTGGATTAGTGCTA | 1.29
GACGGTTTCGGGTCCGGGACGTGCTAG | 9.55
TCAGCATTCGAATTCAGACTGTGCTAG | -0.375
CACGGTTTCGGTTCCGGGACGTGCTAG | 13
AACATACTGATTTCCACTTTGTGCTAG | 0.682
TGTGTTTTCATTTTATGACAGTGCTAG | 1.48
GACGGGATCGGGTTTCGGGACGTGCTA | 2.34
GACGGATTCGACTATCGGGACGTGCTA | 0.0514
GACGGACCGGGTATCGGGACGTGCTAG | 0.449
TCACATGTGCCTTTATAACTGTGCTAG | 0.352
GACGGTATCGGTCTCGCGACGTGCTAG | 8.33
TTACCCCATCCCCCTTTTCTGTGCTAG | 0.752
GTGTGCATCTATCTTAAATAGTGCTAG | -0.187
GACCATCTCAGTCTCGAGACGTGCTAG | 1.47
TCACAACTCTGTTTTCGACTGTGCTAG | 0.385
TTAGGTATCCTACTCCTTTAGTGCTAG | 0.0743

Sample 4 — target: ATF2, bZIP domain (human); method: DHFR protein complementation; matrix: yeast; relative to: wild-type JUN-FOS pair; reading: higher = stronger binding
Setting: single substitutions, most at no-binding floor
Starting sequence: JUN, bZIP domain (human); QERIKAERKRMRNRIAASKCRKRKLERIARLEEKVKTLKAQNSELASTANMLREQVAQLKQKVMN; partner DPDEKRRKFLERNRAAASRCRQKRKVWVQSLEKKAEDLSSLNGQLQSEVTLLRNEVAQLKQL
Variant | binding fitness
T48V | -1.36 natural log
M51V | -1.34 natural log
V56A | -1.41 natural log
N42L | -1.49 natural log
L52W | -1.61 natural log
A57M | -1.47 natural log
S47W | -1.27 natural log
K34T | -1.31 natural log
T48K | -1.29 natural log
R53S | -1.41 natural log
A49D | -1.5 natural log
E32W | -1.33 natural log
S47V | -1.39 natural log
Q55E | -1.29 natural log
L31N | -1.48 natural log
T37S | -1.19 natural log

Sample 5 — method: aptamer microarray, sandwich; molecule type: DNA with 2'F-ANA; matrix: in vitro; tested at: 200 nM; added: Cy3 exosite-II aptamer, 400 nM; reading: higher = stronger binding; strand: GGTTGGTGTGGTTGG
Target: Prothrombin, mature alpha-thrombin (F2, Homo sapiens, UniProt P00734)
Setting: whole 15-mer aptamer, many near background
Modification | mean fluorescence intensity [a.u.]
2'F-ANA at 1 4 5 10 11 12 14 | 42.1
2'F-ANA at 6 9 13 | 317
2'F-ANA at 2 4 6 7 10 14 | 66.1
2'F-ANA at 1 5 7 11 12 13 14 15 | 47.7
2'F-ANA at 1 3 4 6 7 9 11 14 | 69.4
2'F-ANA at 3 5 6 7 8 11 12 15 | 209
2'F-ANA at 2 3 6 8 10 12 14 | 263
2'F-ANA at 2 6 11 13 15 | 251
2'F-ANA at 1 5 6 7 8 11 13 15 | 73.6
2'F-ANA at 1 2 3 5 6 7 8 10 11 | 50.8
2'F-ANA at 3 9 10 12 | 632
2'F-ANA at 3 4 5 6 7 8 9 10 11 13 15 | 96.3
2'F-ANA at 1 3 4 5 6 7 11 14 | 49.2
2'F-ANA at 1 5 11 12 | 84.5
2'F-ANA at 1 2 3 4 6 9 10 15 | 56.8
2'F-ANA at 1 4 7 8 9 11 12 13 14 15 | 105
2'F-ANA at 1 2 3 7 9 10 11 13 14 | 55.2
2'F-ANA at 1 2 3 4 5 6 7 11 12 13 14 | 53.7
2'F-ANA at 7 8 9 12 13 14 | 288
2'F-ANA at 1 4 9 10 12 | 58
2'F-ANA at 1 2 5 7 9 14 | 45
2'F-ANA at 3 4 5 7 10 13 14 | 45
2'F-ANA at 1 5 7 8 10 15 | 51.6
2'F-ANA at 1 5 8 9 12 13 14 | 45.6
2'F-ANA at 2 4 5 8 11 15 | 62.1

Sample 6 — target: CCND3, cyclin fold, Cln2 fusion (human); method: yeast growth competition, sequencing; matrix: yeast; setting: weak parent motif; relative to: not given; reading: higher = stronger binding
Starting sequence: WEE1 docking peptide (human); HKTFRKLRLFDTP
Variant | normalised enrichment score
F10D | 0.0688
R8M | 0.131
K6V | 0.0285
D11K | 0.0987
R5N | -0.649
K6Y | 0.178
D11F | 0.187
L7Q | 0.212
H1I | 0.276
T12D | 0.214
T3K | 0.0558
D11L | 0.113
R5V | 0.0718
F10Q | 0.0149
T12I | 0.211
H1Y | 0.0983
K2I | 0.0998
K2A | 0.153
K2V | 0.121
T3N | 0.0322
R5K L9F | -0.262
R5Y | 0.121
K6L | 0.0655
F4V | 0.107
P13Q | -0.0104

Excerpt of the above (sample 2):
Strand | E-score
CCACGCGC | 0.392
TAACGCTA | 0.00951
GCTCTTGA | -0.0374
CAACGCTC | -0.0919
TAAATTGA | -0.2
AAGCGTGG | 0.127
GGTATGAC | 0.164
ACCAAAGA | -0.219
CACTGATC | -0.279
GTCTTTAA | -0.1
ACTAACTG | -0.0911
CTGTCCGA | 0.0923
